Measurements pooled from the literature.
Protocols differ between the studies behind these lines. Several values in a cell are separate wells, animals, samples, runs or records. Numbers after ± are the reported error.
UDP-3-O-acyl-N-acetylglucosamine deacetylase C40S: UDP-3-O-acyl-N-acetylglucosamine deacetylase (Pseudomonas aeruginosa, UniProt P47205, C40S)
SLC6A3 W84L: Sodium-dependent dopamine transporter (SLC6A3, Homo sapiens, UniProt Q01959, W84L)
Sequence of UniProt Q01959 (whole entry, unmodified, looked up): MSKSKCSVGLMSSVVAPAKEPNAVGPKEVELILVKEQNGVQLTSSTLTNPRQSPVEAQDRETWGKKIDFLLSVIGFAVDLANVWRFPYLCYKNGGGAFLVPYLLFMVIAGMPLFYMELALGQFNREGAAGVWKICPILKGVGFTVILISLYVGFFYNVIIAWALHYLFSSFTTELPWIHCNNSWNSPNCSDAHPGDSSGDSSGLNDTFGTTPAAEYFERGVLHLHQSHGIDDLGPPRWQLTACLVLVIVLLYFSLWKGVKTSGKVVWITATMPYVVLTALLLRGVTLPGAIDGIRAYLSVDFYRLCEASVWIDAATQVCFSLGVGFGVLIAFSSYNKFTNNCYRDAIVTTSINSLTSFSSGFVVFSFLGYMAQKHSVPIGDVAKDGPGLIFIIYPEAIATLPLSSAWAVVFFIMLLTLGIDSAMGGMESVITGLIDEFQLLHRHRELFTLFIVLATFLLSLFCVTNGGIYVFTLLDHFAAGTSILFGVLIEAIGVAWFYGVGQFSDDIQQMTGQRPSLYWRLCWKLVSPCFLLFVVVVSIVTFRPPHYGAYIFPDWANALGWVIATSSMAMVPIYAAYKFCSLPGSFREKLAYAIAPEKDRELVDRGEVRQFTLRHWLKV
DNA polymerase III PolC-type: DNA polymerase III PolC-type (Bacillus subtilis, UniProt P13267)
Sequence of UniProt P13267 (whole entry, looked up): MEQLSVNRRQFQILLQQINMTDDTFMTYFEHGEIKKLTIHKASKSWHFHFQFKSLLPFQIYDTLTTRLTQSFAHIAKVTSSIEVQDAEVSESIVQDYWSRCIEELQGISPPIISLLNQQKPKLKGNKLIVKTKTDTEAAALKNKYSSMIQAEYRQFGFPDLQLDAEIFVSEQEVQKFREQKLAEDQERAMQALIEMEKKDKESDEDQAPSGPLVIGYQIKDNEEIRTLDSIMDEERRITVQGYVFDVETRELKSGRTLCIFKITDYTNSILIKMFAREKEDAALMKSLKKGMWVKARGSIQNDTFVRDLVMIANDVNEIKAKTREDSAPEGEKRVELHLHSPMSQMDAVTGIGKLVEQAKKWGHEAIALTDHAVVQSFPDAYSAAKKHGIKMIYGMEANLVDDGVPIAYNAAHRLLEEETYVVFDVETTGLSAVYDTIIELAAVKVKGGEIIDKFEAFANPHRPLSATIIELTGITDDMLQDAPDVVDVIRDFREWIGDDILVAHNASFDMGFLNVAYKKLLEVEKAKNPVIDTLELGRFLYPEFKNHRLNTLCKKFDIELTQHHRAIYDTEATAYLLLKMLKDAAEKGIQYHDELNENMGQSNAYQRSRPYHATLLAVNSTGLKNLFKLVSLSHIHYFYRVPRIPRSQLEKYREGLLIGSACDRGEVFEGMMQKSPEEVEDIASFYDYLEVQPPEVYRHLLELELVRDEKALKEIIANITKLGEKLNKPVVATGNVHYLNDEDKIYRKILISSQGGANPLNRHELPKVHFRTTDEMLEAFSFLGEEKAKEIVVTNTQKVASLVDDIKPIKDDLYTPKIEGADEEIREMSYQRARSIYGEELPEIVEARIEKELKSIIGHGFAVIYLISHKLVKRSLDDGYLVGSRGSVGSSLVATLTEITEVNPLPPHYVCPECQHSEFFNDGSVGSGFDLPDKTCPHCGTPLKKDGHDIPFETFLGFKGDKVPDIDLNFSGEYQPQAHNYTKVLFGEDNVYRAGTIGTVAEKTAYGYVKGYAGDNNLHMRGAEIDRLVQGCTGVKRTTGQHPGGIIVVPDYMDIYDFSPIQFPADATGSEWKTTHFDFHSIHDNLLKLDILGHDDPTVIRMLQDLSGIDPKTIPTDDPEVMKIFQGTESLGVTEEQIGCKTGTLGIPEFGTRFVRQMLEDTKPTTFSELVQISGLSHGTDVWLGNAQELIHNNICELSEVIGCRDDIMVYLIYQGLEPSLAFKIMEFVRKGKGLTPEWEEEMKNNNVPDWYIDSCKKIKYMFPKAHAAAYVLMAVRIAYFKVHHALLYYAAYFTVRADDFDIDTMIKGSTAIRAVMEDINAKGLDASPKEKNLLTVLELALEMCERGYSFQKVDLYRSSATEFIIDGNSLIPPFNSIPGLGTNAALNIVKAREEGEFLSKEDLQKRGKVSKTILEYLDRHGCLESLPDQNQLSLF
Sequence of UniProt Q9NWT6 (whole entry, looked up): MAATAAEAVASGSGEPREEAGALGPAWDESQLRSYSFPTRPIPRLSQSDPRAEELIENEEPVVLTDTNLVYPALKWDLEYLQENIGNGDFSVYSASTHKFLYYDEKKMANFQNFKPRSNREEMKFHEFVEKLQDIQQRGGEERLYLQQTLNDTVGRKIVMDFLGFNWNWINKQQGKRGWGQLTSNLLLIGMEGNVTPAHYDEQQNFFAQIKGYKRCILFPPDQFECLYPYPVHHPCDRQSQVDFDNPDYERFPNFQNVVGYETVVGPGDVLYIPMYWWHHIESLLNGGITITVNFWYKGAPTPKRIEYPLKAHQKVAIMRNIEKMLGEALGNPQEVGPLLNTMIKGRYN
Sequence of UniProt Q14765 (whole entry, looked up): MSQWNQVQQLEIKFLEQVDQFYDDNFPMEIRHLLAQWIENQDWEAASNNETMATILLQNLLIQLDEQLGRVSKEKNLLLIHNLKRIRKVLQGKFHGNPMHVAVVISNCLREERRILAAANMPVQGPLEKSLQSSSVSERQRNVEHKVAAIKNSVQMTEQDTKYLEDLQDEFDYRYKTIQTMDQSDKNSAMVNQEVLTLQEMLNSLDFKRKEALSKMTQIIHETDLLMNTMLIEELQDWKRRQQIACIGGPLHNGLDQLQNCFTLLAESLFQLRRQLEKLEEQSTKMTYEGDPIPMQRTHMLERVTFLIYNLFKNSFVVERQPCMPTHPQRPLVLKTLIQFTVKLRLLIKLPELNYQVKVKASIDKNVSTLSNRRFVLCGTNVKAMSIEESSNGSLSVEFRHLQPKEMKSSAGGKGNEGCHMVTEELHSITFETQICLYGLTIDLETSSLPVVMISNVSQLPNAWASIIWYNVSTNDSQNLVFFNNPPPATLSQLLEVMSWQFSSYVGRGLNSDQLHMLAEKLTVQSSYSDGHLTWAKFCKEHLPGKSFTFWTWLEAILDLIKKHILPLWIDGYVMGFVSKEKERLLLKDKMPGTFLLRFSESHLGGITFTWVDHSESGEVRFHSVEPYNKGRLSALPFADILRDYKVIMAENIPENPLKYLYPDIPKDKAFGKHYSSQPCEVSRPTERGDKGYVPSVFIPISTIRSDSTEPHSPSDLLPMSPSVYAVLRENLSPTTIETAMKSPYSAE
Sequence of UniProt P05182 (whole entry, looked up): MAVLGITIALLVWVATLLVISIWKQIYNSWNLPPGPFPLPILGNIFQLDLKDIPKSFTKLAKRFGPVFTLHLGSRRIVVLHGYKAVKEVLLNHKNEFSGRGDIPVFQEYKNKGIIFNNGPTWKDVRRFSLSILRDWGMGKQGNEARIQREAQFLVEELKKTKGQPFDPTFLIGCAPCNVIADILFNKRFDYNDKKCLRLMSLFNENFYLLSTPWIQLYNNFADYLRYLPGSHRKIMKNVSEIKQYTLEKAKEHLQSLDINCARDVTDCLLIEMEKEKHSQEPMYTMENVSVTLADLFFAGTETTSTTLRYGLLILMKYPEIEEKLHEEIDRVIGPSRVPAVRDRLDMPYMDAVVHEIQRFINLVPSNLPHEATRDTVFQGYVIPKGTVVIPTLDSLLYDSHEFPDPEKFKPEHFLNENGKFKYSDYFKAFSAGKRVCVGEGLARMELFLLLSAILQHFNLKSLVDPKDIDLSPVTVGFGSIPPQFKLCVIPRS
Sequence of UniProt P0DMS8 (whole entry, looked up): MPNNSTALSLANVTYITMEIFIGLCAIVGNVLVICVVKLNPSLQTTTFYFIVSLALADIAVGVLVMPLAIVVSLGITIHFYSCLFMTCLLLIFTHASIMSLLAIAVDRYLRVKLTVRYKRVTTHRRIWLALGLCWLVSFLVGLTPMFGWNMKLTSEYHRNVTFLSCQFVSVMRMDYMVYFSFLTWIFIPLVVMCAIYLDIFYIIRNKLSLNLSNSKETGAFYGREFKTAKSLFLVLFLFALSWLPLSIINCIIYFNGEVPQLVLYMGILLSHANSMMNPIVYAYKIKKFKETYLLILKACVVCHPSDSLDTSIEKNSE

Structure (SMILES)	target	assay	test system	conditions	Ki
C[C@@H](O)[C@H](NC(=O)c1ccc(C#Cc2ccccc2)cc1)C(=O)NO	UDP-3-O-acyl-N-acetylglucosamine deacetylase C40S	enzyme activity, inhibitor	–	–	0.00116 µM
C/C(=C\C(=O)OCCCCCCCC(=O)Nc1c2sscc-2[nH]c1=O)[C@@H](O)[C@@H]1OC[C@H](C/C=C/[C@@H](C)[C@H](C)O)[C@@H](O)[C@H]1O	Isoleucine--tRNA ligase (ileS, Staphylococcus aureus, UniProt Q5HGN8)	adenylation activity, competitive inhibitor, ATP-PPi exchange	–	together with: L-isoleucine	0.00037 ± 7e-05 µM
c1ccc(C(OCCN2CCNCC2)c2ccccc2)cc1	SLC6A3 W84L	binding, [3H]CFT binding inhibition	HEK293	15 min, 20 °C, together with: 130 mM Na+	0.556 ± 0.0715 µM
O=C(O)CCC(=O)C(=O)O	Hypoxia-inducible factor 1-alpha inhibitor (HIF1AN, Homo sapiens, UniProt Q9NWT6)	cosubstrate	–	–	> 1000 µM and > 1300 µM
Nc1ncnc2c1ncn2[C@@H]1O[C@H](COP(=O)(O)OP(=O)(O)OP(=O)(O)O)[C@@H](O)[C@H]1O	GTP 3',8-cyclase (moaA, Staphylococcus aureus, UniProt P69848)	enzyme activity, GTP-competitive inhibitor, Cheng-Prusoff	–	together with: GTP Km 3.1 µM	106 ± 8 µM
CCOCCn1cnc2nc(NCc3ccc(Cl)c(Cl)c3)[nH]c(=O)c21	DNA polymerase III PolC-type	inhibitor	–	–	0.55 µM
Cc1cccc(C)c1N1C(=O)CNC2(CCN(C)CC2)C1=O	Sodium-dependent dopamine transporter (SLC6A3, Homo sapiens, UniProt Q01959)	binding	–	–	> 10 µM
O=P(O)(O)Oc1ccccc1OP(=O)(O)O	Signal transducer and activator of transcription 4 (Homo sapiens, UniProt Q14765)	inhibitor	–	–	34 ± 3 µM
O=C(O)c1cccc(Cc2c[nH]c3cc(-c4ccc5cc[nH]c5c4)ccc23)c1	Envelope glycoprotein gp160, gp41 hydrophobic pocket (env, Human immunodeficiency virus type 1 group M subtype B, UniProt P04578, K574X)	–	–	–	1.2 µM
C[C@@H](O)[C@H](NC(=O)c1ccc(C#CC#Cc2ccccc2)cc1)C(=O)NO	UDP-3-O-acyl-N-acetylglucosamine deacetylase C40S	bio-layer interferometry	–	298 K	0.000655 µM
Cn1cnc2nc(NCc3ccc(Cl)c(Cl)c3)[nH]c(=O)c21	DNA polymerase III PolC-type	inhibitor	–	–	0.32 µM
CN1[C@@H]2CC[C@H]1C[C@@H](OC(=O)c1ccccc1)C2	SLC6A3 W84L	binding, [3H]CFT binding inhibition	HEK293	15 min, 20 °C, together with: 130 mM Na+	27.7 ± 0.878 µM
COc1cc(Nc2ncc(F)c(Nc3ccc4c(n3)NC(=O)C(C)(C)O4)n2)cc(OC)c1OC	Adenosine receptor A3 (ADORA3, Homo sapiens, UniProt P0DMS8)	binding, radioligand binding	–	–	0.0158 µM
C=CC(O)CO (stereo not shown)	Cytochrome P450 2E1 (Cyp2e1, Rattus norvegicus, UniProt P05182)	4-nitrophenol oxidation, inhibitor	F344 rat liver microsomes	30 min, pH 7.4, together with: 4-nitrophenol	640 µM
CN1CCN(CCOC(c2ccccc2)c2ccccc2)CC1	Sodium-dependent dopamine transporter (SLC6A3, Homo sapiens, UniProt Q01959, D313N)	binding	HEK293 expressing DAT D313N	0 mM Na+ with NMDG-Cl buffer, together with: [3H]CFT	0.338 ± 0.0196 µM
O=C(O)CNCP(=O)(O)O	EPSP synthase (Zea mays, UniProt A0A1D6NVZ6, P168S/T164I)	–	–	–	739 ± 52 µM

Some of these lines once more:
Structure (SMILES)	target	assay	test system	conditions	Ki
CCOCCn1cnc2nc(NCc3ccc(Cl)c(Cl)c3)[nH]c(=O)c21	DNA polymerase III PolC-type	inhibitor	–	–	0.55 µM
Cc1cccc(C)c1N1C(=O)CNC2(CCN(C)CC2)C1=O	Sodium-dependent dopamine transporter (SLC6A3, Homo sapiens, UniProt Q01959)	binding	–	–	> 10 µM
